Assay results collected from several papers.
A part holds a random share of what one study measured.

Sample 1 — technique: EMSA with sequencing; form: double-stranded DNA, one strand shown; matrix: in vitro; concentration: 10 and 20 nM; baseline: negative control set to 0; direction: higher = stronger binding; measurement: normalised bound fraction
Target: Hepatocyte nuclear factor 3-alpha (Foxa1, Mus musculus, UniProt P35582, residues 1-468, full length assumed)
Setting: whole designed probe, mean of two concentrations, ends assumed
Residues (chain): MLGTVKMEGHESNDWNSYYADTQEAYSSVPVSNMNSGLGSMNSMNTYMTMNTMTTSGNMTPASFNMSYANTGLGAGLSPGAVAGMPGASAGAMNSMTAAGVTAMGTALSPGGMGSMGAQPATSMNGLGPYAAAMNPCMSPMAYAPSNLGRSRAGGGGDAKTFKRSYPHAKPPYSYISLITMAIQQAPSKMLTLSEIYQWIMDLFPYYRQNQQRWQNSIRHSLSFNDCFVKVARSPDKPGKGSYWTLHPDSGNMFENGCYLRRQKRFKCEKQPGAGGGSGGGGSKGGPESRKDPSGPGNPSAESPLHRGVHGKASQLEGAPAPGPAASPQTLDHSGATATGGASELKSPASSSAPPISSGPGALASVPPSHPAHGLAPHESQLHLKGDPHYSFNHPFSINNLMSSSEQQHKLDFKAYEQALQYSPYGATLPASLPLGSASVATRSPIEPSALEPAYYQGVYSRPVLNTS
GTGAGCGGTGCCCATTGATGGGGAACACTGGGATGAGAGGCCAGGTAGAAACTTCAGGAGCATTCCACTTTGAAGTGTGAGGCTCTACCAGACACAAAATAAATATAACTGGGGGCCAGAATAAACATCCAGGGCCAGCAAGTGAACCTGGCTTACGTGGCATGCATTAATATTTGGAGAAATTTCCCCAGCGAGGTTGCAGGAAGCTGAGTCACCTACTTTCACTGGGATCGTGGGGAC: 0.356 ratio
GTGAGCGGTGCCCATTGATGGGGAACCATTTTAAATACACATTTCTGAAAGAGTTCTTAATGCTTGCATACTGACTTTTGTCATAGAGTTTATACTCTTGGGTTCTTATTTGTTTGCATGTTTACATATAATTTCAAAATAAGTGCTAAATAAATTGTCCTTGATAATAGCCTATGTGCTTACATAGAAATACTAATTGTAAAATATCTGTAGCAATAATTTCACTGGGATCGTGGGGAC: 0.379 ratio
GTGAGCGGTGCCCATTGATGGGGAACCAGTATTTTTCTTTTTACATTAATATTCCCTTAAAAACATTACCTGGAATGATCCTCTGTGCATGGAGAAGTACACATTCTGCAATGATAAGTGTAAACAAAACTGAACATTTTATTTCTCCCTTTTTGCTATTCTCTGACCTGCAGTGCATTCCAATACTTTCTGCTTTCAGTTAACACGCAGTTCTTTATTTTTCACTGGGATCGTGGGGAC: 0.338 ratio
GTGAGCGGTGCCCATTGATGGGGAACCTTCAAAGTAGCTCCCATATGGACTGAATATAGGATACGAGCCTCTGCCTAGCCTTCAGTCCTTTTTGTTTGGTTTAGGTGTTGGTTGTCTTTGTAAACACTGGAAGCTGCTGAGTCATCTCCCTCGGCTTTTTCCATCACACTTTACCCCACATACATTCATACACACTTGGCTCAAGCTTTTCGGTTCTTTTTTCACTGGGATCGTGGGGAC: 0.345 ratio
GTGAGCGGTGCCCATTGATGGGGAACACGGAGATTGCAGAGTGACTGTTCCCCTGGGGGACCCTAGGCTTGTCCTCGCGTTACCTTTGTCCCATCAGTTGCTGCTCTGGCTGGGGAAGTAGATTACATTGGCTGCTGTGTGCTGCTGCTAGGAATTTTGAGGAGTGTGCACTTTTTTTTTTTTTTTTTTGCTGTTGTTGAGGCGGAGTCTCGCTCTGTCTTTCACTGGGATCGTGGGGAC: -0.0574 ratio
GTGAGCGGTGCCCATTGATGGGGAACGGAATTCCAACCTGAGATAAGGGCAATAAGTTTACTAGCTATGAGATATTACAGATAACATTTCGTACTGATGCCTCTTTTTGGTATTATGTAAAATTATTTTGGTCAGAAATATTGGATGAGTCACTAAATTGCATCATCTCAAGAAATGTTCCTGCATTTACATGTTATCCACTTAGAATTTAAAGTGGACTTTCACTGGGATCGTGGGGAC: -0.056 ratio

Sample 2 — technique: protein binding microarray; form: double-stranded DNA, one strand shown; matrix: in vitro; concentration: not given; baseline: not given; direction: higher = stronger binding; measurement: E-score
Target: Histone acetyltransferase KAT6A, both winged helices, GST fusion (KAT6A, Homo sapiens, UniProt Q92794, residues 1-181)
Setting: 8-mer, flanks averaged, mean of 2 arrays, mostly near background
Construct (chain): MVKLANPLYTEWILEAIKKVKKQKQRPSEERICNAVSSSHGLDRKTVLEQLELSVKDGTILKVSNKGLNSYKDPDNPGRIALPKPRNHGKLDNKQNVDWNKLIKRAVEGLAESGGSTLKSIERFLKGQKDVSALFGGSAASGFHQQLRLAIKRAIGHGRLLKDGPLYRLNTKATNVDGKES
CTAGTGGC: -0.098
AACCCCAC: -0.149
GAATGAAA: 0.0316
GAGTGTAC: 0.0537
ATCGAGTA: -0.184
CGTTAGTC: -0.0293
CATAGTAG: -0.0461
CTCAGTAC: -0.0901
AAGTTATT: -0.0625
CATTAACG: 0.0328
CGTACTAA: 0.0797
AAGAACAA: -0.00321
ATCTATAC: -0.0132
AGATATTC: -0.356
ATCGTAAC: 0.111
AGTATACC: -0.0192
AAATAGTG: -0.0628
ATTCGTGG: -0.138
CGACTGTA: 0.0103
TAATAGGA: -0.047
CTACTCAG: -0.142
GATCGTCA: -0.0534
ATACGACA: -0.168
GAACAAGC: 0.0804

Sample 3 — technique: RNA Bind-n-Seq; form: RNA; matrix: in vitro; concentration: 365 nM; baseline: no-protein control; direction: higher = stronger binding; measurement: RBNS enrichment (R)
Target: RNA binding protein fox-1 homolog 2, RRM domain, GST-SBP tag (RBFOX2, Homo sapiens, UniProt O43251-10, residues 100-194)
Setting: natural RNA segment, single round, ends assumed
Construct (chain): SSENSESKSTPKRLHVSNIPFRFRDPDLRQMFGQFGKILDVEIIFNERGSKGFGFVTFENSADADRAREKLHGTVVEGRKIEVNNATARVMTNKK
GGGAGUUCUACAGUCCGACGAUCCUGACUUAACGUUCUAUAAAUGAAUGUGCUGAAGCAAAGUGCCCAUGGUGGCGGCGAAGAAGAGAAAGAUGUGUUUUGUUUUGGACUCUCUGUGGUCCCUUCCAAUGCUGUGGAAUUCUCGGGUGCCAA: 0.49
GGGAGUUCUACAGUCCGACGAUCCCUGCGGCCCUACAAAUAACCGGGGGGAGCGGCCCUGCCUGGGGGUGGCCUGGUCCGCGGAGGGUGCACCUGCCCUCCACAGUGGGAGCUGCAUGGGCCUCCACACCACCUGGAAUUCUCGGGUGCCAA: 0.776
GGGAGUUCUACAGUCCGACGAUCUUUUCAUAAGUAACACAGAUUCCCUGAUUUUUAAAAACUAAAAAUACAGCUAAACCUUUCUUAUGUAUAAAGUAUGCCUAUCAUAUACAGGGAGAGGUGGGUAAUAAACUUGGAAUUCUCGGGUGCCAA: 0.725
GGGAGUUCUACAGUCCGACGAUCGCUGACCUCACCCUUACUUUUAUACUUUAGUAUGAAACUGAUGAGAACUUUGGUAGUGAGUAUUUUUUUUAUAUAUAUACAUAUAUAUGUACUAUCUAUAUAUAUAUCUCUGGAAUUCUCGGGUGCCAA: 0.767
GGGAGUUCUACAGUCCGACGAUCCUGAGACUGUGUUCAGCCCUUUCCCCUAUAAAUUGAUAGGAACUGUGUGUCCACCUUUCCAAAGAAAGGAAAGACAAAAAGAGUUUCCAGAUUGGCCCAGCUGCUGAUAGUGGAAUUCUCGGGUGCCAA: 0.465
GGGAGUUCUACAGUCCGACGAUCGAAAGUAUUUACCUUAUUUAUAUACCUGAAUGUUCCUAUUAAACAAAUAAACAUAUACUAAAUUCUAGAUUGUGCGUGUUUUUUGAUGGGAGAAGCCCUUUUAAAACGAUUGGAAUUCUCGGGUGCCAA: 0.957
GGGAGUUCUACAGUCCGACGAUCCAAUGAUUUUUUUUUAAACUUUCAAAGUGGUUGUUCAAAGUGUAGCAACUUGUAUGUUGAAAUGAUUGUAUGUUCUGUAUGAAAUGUUCCACUUGAGAUUUUUACAAAAGUGGAAUUCUCGGGUGCCAA: 7.51
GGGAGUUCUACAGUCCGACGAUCGUCUUCACUAGACCCCAGCCCCCUCUACCCUUCUUACCACCUCCCUAUAGCCUCAGCUUCAGAAGCCAGUAGCCUCCAGCCACAGAGUAUCGUGUUGUGGGCUGUUUGAGUGGAAUUCUCGGGUGCCAA: 0.338
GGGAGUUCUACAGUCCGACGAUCUUCAGAAAAAUAAACUUUCCCAAAAUGUGUCUGAACCACAAGAGCAUACAGUGGAAGUGCUACCUCUAAUCUAACCAGAGCACCUUCAUGGUGGAAGACACCCACCAGGUUGGAAUUCUCGGGUGCCAA: 0.86
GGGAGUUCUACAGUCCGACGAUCUACAUCCUUGUUUCUGUCUGGUAGAGAGUUUGCUUCUCAAAUGGAGCAAACAAAUUUGAUUAUUUUUUCAUUGUUAAAUAGGCAACAUGACCAGAAAGGAUGGAAUGGCUUGGAAUUCUCGGGUGCCAA: 0.449
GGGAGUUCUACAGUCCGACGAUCACAUGUGAAGUGUUUAUCAUAAGAUCCUCAGGAGUCAGUAUUGCAUGAUGCUCCCCUUAAUUGUCACACUGAAAUUAUGUAGUAAAUCAGAAAAUACCUGAAAAGCAACUUGGAAUUCUCGGGUGCCAA: 64.4
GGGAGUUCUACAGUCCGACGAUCAGAGUAUUUAUGGGAAAGGCUGCCCAUGACCAGUGUGACUCAAAGCAAUGUGAUCUCCCUUGAUUCAAACGCACACCUCUGCCCUGCUGGAGAAGGUUUAGGGCCAUGUCUGGAAUUCUCGGGUGCCAA: 2.34

Sample 4 — technique: competition protein-binding microarray; form: double-stranded DNA, one strand shown; matrix: in vitro; concentration: 2 µM; together with: Cbf1 competitor, 0.05 µM; direction: higher = stronger binding; measurement: fluorescence intensity
Target: Phosphate system positive regulatory protein PHO4, full length, GST-tagged (PHO4, Saccharomyces cerevisiae, UniProt P07270, residues 1-312)
Setting: whole 60-bp probe, lowest competitor level
Construct (chain): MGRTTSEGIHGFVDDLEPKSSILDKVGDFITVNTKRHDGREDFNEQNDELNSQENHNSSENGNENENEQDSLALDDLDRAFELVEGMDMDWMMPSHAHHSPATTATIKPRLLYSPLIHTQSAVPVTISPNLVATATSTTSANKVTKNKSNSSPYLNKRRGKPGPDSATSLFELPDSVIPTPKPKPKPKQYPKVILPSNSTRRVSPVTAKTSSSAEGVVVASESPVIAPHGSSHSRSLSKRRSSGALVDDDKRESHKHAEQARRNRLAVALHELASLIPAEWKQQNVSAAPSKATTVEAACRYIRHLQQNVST
GTCTTGTCTCATTGTCACGCCACTTTCCCCACTTCAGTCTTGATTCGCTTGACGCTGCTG: 5490 a.u.
GTCTTGTCTCATTGAGGTGTGGGTGTCCCCACTTCAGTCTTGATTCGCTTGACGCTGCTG: 6220 a.u.
CGACAAGCCGCTATTAGCGTGGGTACTGACATCAGGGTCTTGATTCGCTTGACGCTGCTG: 5070 a.u.
TTACTGACGTTATTGAACGTGAGATTATTTTGCTTGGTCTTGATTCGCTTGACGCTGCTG: 6340 a.u.
TTACTGGCGTAGACACCCGTGAAGTAGTGCAATACTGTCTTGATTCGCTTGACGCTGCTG: 4840 a.u.
TGCGCAACAACTTTTCACGTGTGGTTATGTCTAGAAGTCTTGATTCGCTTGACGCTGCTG: 14000 a.u.
CAGATGAACTTCTTGAACGTGGACGCCGTATGCCATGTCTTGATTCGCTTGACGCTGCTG: 9560 a.u.
CATACCCAACCTTGTATGGTGGGTGAAGATATTTGTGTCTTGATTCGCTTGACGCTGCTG: 4210 a.u.
AAAGCGGTAATTTGTACCGTGGGTGCAGATATCTATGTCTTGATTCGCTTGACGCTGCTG: 5720 a.u.
AGCAAGTTTTACCATCACCTGCACAACCACAACAGCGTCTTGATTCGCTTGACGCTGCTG: 5970 a.u.
TCCATTCGAGACCTGTCCGTGATGGCGAGGACAAGAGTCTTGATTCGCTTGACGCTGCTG: 3900 a.u.
AGAAGGAAGTAACTGCAGGTGAAGCACAGGACGAAGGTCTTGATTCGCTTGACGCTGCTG: 5640 a.u.
CTACGCTATGGAAACCGCGTGCCAGACTGGTAGAGTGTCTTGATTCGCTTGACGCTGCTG: 12700 a.u.
TCTCCTCACAATTTTCACGTGCTTTCGATCTTAGTTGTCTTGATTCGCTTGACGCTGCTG: 17400 a.u.
TCTCGATCTTCCCATCACGCATAGGGTTTTGGGCTTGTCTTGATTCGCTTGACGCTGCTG: 6080 a.u.
GTCTTGTCTCATTGACATGTGGGTGTCCCCACTTCAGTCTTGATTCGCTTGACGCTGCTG: 10500 a.u.
TGTACCACCTCTTTGAACGTGACAAAGAATGGTTACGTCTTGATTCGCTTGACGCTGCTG: 8810 a.u.
ATTTGAACATTGAATCATGTGTACCTAACATAAAATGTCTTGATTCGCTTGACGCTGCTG: 9040 a.u.
CGGGGTTAAGTTTGTCACCTTACTTGCTTGCAGCAGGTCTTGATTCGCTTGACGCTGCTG: 3240 a.u.
CTTTTTTTTCTCTCGCCCGTGCCGATCCGTCTTCGAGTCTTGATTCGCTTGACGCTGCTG: 9330 a.u.
GGTTATGGCCTGGATGACCTGTTTTCAATTCAGACAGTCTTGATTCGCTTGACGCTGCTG: 3210 a.u.
